{"data": "Experimental data of several laboratories", "note": "Lines come from different studies, so protocols differ. ± marks the error that the study gave."}
{"SMILES": "CCCCCCCC(=O)OC[C@H](NC(=O)[C@H](CO)NC(=O)CN)C(=O)N[C@@H](Cc1ccccc1)C(=O)N[C@@H](CC(C)C)C(=O)N[C@@H](CO)C(=O)N1CCC[C@H]1C(=O)N[C@@H](CCC(=O)O)C(=O)N[C@@H](Cc1cnc[nH]1)C(=O)N[C@@H](CCC(N)=O)C(=O)N[C@@H](CCCNC(=N)N)C(=O)N[C@H](C(=O)N[C@@H](CCC(N)=O)C(=O)N[C@@H](CCC(N)=O)C(=O)N[C@@H](CCCNC(=N)N)C(=O)N[C@@H](CCCCN)C(=O)N[C@@H](CCC(=O)O)C(=O)N[C@@H](CO)C(=O)N[C@@H](CCCCN)C(=O)N[C@@H](CCCCN)C(=O)N1CCC[C@H]1C(=O)N1CCC[C@H]1C(=O)N[C@@H](C)C(=O)N[C@@H](CCCCN)C(=O)N[C@@H](CC(C)C)C(=O)N[C@@H](CCC(N)=O)C(=O)N1CCC[C@H]1C(=O)N[C@@H](CCCNC(=N)N)C(=O)O)C(C)C", "assay": "item: desacyl ghrelin", "system": "human, plasma", "conditions": "intravenous infusion, 1 µg/kg/h, 210 min", "measurement": "AUC(0-t)", "value": "0.00287 ± 0.0022 µg·h/mL"}
{"SMILES": "CSCC[C@H](NC(=O)CNC(=O)[C@H](CC(=O)O)NC(=O)[C@@H](NC(=O)[C@@H](NC(=O)[C@@H](NC(=O)CNC(=O)[C@H](CCC(=O)O)NC(=O)[C@H](CCSC)NC(=O)[C@H](CC(=O)O)NC(=O)[C@H](C)NC(=O)[C@H](C)NC(=O)[C@@H](NC(=O)[C@H](CO)NC(=O)[C@@H](N)CC(C)C)[C@@H](C)O)C(C)C)C(C)C)[C@@H](C)O)C(=O)N[C@@H](C)C(=O)N[C@@H](CO)C(=O)NCC(=O)N[C@@H](CC(C)C)C(=O)N[C@@H](CC(=O)O)C(=O)N[C@@H](CCCCN)C(=O)N[C@@H](CC(=O)O)C(=O)N[C@@H](Cc1ccc(O)cc1)C(=O)N[C@@H](CC(C)C)C(=O)N[C@@H](CCCCN)C(=O)N1CCC[C@H]1C(=O)N[C@@H](CC(=O)O)C(=O)N[C@@H](CC(=O)O)C(=O)O", "system": "male CD-1 mouse, serum", "conditions": "intravenous, 480 mg/kg", "measurement": "Vd", "value": "4.08 L/kg"}
{"SMILES": "CC[C@@H]1C[C@]1(NC(=O)[C@@H]1C[C@@]2(CN1C(=O)[C@@H](NC(=O)[C@@H](NC(=O)[C@@H]1CCCCN1C(C)C)C1CCCCC1)C(C)(C)C)C(C)(C)C21CCC1)C(=O)NS(=O)(=O)N1CCCC1", "system": "healthy human", "conditions": "oral, 10 mg single dose", "measurement": "subjects with nausea", "value": "0%"}
{"SMILES": "CS(C)(=O)=Nc1ccc(-c2ccc(-c3nc4cc(O[C@@H]5CO[C@H]6[C@@H]5OC[C@H]6O)[nH]c4cc3F)cc2)cc1", "system": "female C57BL/6 mouse, plasma", "conditions": "intravenous, 3 mg/kg", "measurement": "Vd", "value": "2.3 L/kg"}
{"SMILES": "CCC[C@@H]1O[C@@H]2C[C@H]3[C@@H]4C[C@H](F)C5=CC(=O)CC[C@]5(C)[C@@]4(F)[C@@H](O)C[C@]3(C)[C@]2(C(=O)CO)O1", "system": "CD1 mice, plasma", "conditions": "intravenous, 0.15 mg/kg, added: budesonide 0.2 mg/kg", "measurement": "clearance", "value": "74.5 mL/min/kg"}
{"SMILES": "COC(=O)C[C@](O)(CCCC(C)(C)OC(C)=O)C(=O)O[C@@H]1C(OC)=C[C@]23CCCN2CCc2cc4c(cc2[C@H]13)OCO4", "system": "CD1 mouse, heart", "conditions": "oral, 1 mg/kg, 24 h, below quantification limit 1.00 ng/mL", "measurement": "tissue concentration", "value": "not detected"}
{"SMILES": "CC(C)C[C@H](NC(=O)[C@H](CCCCN)NC(=O)[C@H](CCC(=O)O)NC(=O)[C@H](C)NC(=O)[C@@H](NC(=O)[C@H](CCCCN)NC(=O)[C@H](CC(=O)O)NC(=O)[C@H](Cc1ccc(O)cc1)NC(=O)[C@H](Cc1ccccc1)NC(=O)[C@H](C)NC(=O)[C@H](CCCCN)NC(=O)[C@H](CC(C)C)NC(=O)[C@H](Cc1c[nH]c2ccccc12)NC(=O)[C@@H](N)CC(=O)O)C(C)C)C(=O)N[C@@H](CCCCN)C(=O)N[C@@H](CCC(=O)O)C(=O)N[C@@H](C)C(=O)N[C@@H](Cc1ccccc1)C(=O)N1CCC[C@H]1C(=O)N[C@@H](CC(=O)O)C(=O)N[C@@H](Cc1c[nH]c2ccccc12)C(=O)N[C@@H](C)C(=O)N[C@@H](CCCCN)C(=O)N[C@@H](C)C(=O)N[C@@H](C)C(=O)N[C@@H](Cc1ccc(O)cc1)C(=O)N[C@@H](CC(=O)O)C(=O)N[C@@H](CCCCN)C(=O)N[C@@H](C)C(=O)N[C@@H](C)C(=O)N[C@@H](CCC(=O)O)C(=O)N[C@@H](CCCCN)C(=O)N[C@@H](C)C(=O)N[C@@H](CCCCN)C(=O)N[C@@H](CCC(=O)O)C(=O)N[C@@H](C)C(=O)N[C@@H](C)C(=O)O", "system": "cynomolgus monkey female, plasma", "conditions": "intravenous infusion, 8 mg/kg, day 1, 30 min infusion", "measurement": "AUC(0-inf)", "value": "541 µg·h/mL"}
{"SMILES": "CC(=O)[CH](C(C)=O)[Pt-2]1([S+](C)C)[O]C(C)=CC(C)=[O+]1 (stereo not shown)", "assay": "general toxicity", "system": "mouse", "conditions": "intravenous, single dose", "measurement": "MTD", "value": "50 mg/kg"}
{"SMILES": "C[C@@H]1CC[C@H]2[C@@H](C)CO[C@@H]3O[C@@]4(C)CC[C@@H]1[C@]32OO4", "assay": "item: compound", "system": "rat, plasma", "conditions": "50.0 ng/mL spiked, 30 days, long-term storage at -80 °C", "measurement": "measured concentration", "value": "48.7 ± 1.22 ng/mL"}
{"SMILES": "CSCC[C@@H]1NC(=O)[C@@H]2CSSC[C@H](NC(=O)[C@H](CO)NC(=O)[C@H](C)N)C(=O)N[C@@H](CCCNC(=N)N)C(=O)N[C@@H]([C@@H](C)O)C(=O)N3CCC[C@H]3C(=O)N[C@@H](CCCCN)C(=O)N[C@@H](CC(=O)O)C(=O)N[C@H]3CSSC[C@H](NC(=O)[C@H](CCCCN)NC(=O)[C@H](CCCNC(=N)N)NC(=O)[C@H](CC(N)=O)NC1=O)C(=O)N[C@@H](CCCCN)C(=O)N[C@H]1CSSC[C@H](NC(=O)[C@@H]4CCCN4C(=O)[C@H](CC(=O)O)NC(=O)[C@H](C)NC3=O)C(=O)N[C@@H](C)C(=O)N[C@@H](CCCCN)C(=O)N[C@@H](CCC(=O)O)C(=O)N[C@@H]([C@@H](C)O)C(=O)NCC(=O)N[C@@H](CSSC[C@@H](C(N)=O)NC(=O)[C@H](CCCNC(=N)N)NC(=O)[C@H](CC(N)=O)NC1=O)C(=O)N1CCC[C@H]1C(=O)N[C@@H](Cc1ccc(O)cc1)C(=O)NCC(=O)N[C@@H](CCCCN)C(=O)N2", "system": "DA rat, pristane-induced arthritis, serum", "conditions": "subcutaneous, single 0.1 mg/kg at onset, end of 21-day trial", "measurement": "indirect bilirubin", "value": "0.02 mg/dL"}
{"note": "A few entries again:"}
{"SMILES": "CS(C)(=O)=Nc1ccc(-c2ccc(-c3nc4cc(O[C@@H]5CO[C@H]6[C@@H]5OC[C@H]6O)[nH]c4cc3F)cc2)cc1", "system": "female C57BL/6 mouse, plasma", "conditions": "intravenous, 3 mg/kg", "measurement": "Vd", "value": "2.3 L/kg"}
